{"data": "Published values pooled from the literature", "B1": "BASP1; sequence looked up; chain GGKLSKKKKGYNVNDEKAKEKDKKAEGAATEEEGTPKESEPQAAAEPAEAKEGKEKPDQDAEGKAEEKEGEKDAAAAKEEAPKAEPEKTEGAAEAKAEPPKAPEQEQAAPGPAAGGEAPKAAEAAAAPAESAAPAAGEEPSKEEGEPKKTEAPAAPAAQETKSDGAPASDSKPGSSEAAPSSKETPAATEAPSSTPKAQGPAASAEEPKPVEAPAANSDQTVTVKE", "note": "Several values in a cell are separate wells, animals, samples, runs or records. Numbers after ± are the reported error."}
{"Substance": "B1 (BASP1)", "test": "peptide binding, SILAC pull-down", "setting": "concentration not given", "how to read": "relative to: non-acetylated over acetylated NIT1 peptide", "endpoint": "log2 fold change", "result": -0.0759}
{"Substance": "Teicoplanin A2-2", "target or system": "Staphylococcus aureus", "test system": "methicillin-resistant", "endpoint": "MIC", "result": "0.5 µg/mL"}
{"Substance": "(−)-antroquinonol A", "target or system": "MDA-MB-231", "test": "cytotoxicity, MTS", "setting": "72 h", "endpoint": "IC50", "result": "> 25 µM"}
{"Substance": "aspterric acid", "test": "hypocotyl length", "test system": "Arabidopsis thaliana Col-0 seeds", "setting": "100 µg/mL, 7 days, dark", "endpoint": "inhibition", "result": "99.6%"}
{"Substance": "hexaarginine", "target or system": "PorA peptide pore", "test": "peptide binding, planar bilayer single-channel recording", "setting": "0.5 µM, pH 7.4, +15 mV, trans side, 150 mM KCl", "endpoint": "kon", "result": "2.33e+07 ± 2.5e+06 M⁻¹ s⁻¹"}
{"Substance": "colistin", "target or system": "Aspergillus fumigatus", "test system": "conidia", "setting": "40 µM, together with: caspofungin 0.2 µg/mL", "how to read": "relative to: caspofungin alone", "endpoint": "CFU relative to caspofungin alone", "result": "1.11 and 0.904 and 1.23"}
{"Substance": "pertussis toxin", "test": "immunostaining", "test system": "humanized mouse, SAH model, meninges", "setting": "dose not given", "endpoint": "p-PKA level", "result": "99.3 MFI"}
{"Substance": "nonaarginine", "target or system": "PorA peptide pore", "test": "peptide binding, planar bilayer single-channel recording", "setting": "0.5 µM, pH 7.4, -40 mV, cis side, 150 mM KCl", "endpoint": "koff", "result": "5000 ± 500 s⁻¹"}
{"Substance": "insulin human", "test": "measured: GRIA4 mRNA", "test system": "uninfected mouse, brain", "setting": "i.p., dose not given", "how to read": "relative to: PBS", "endpoint": "fold change", "result": 1.09}
{"Substance": "argonaute 2", "test": "peptide binding, SILAC pull-down", "setting": "concentration not given", "how to read": "relative to: non-acetylated over acetylated NIT1 peptide", "endpoint": "log2 fold change", "result": -0.582}
{"Substance": "GWTLNSAGYLLGPHAVDNHRSFNDKHGFT-NH2 (C-amide)", "test": "RT-qPCR, measured: Tnf", "test system": "peptide, chicken, DSS-induced colitis, ileum", "setting": "ip, 50 µM, unit not given", "how to read": "relative to: Actb", "endpoint": "mRNA level", "result": "5.52 and 5.07 and 4.83 and 5.68 and 7.47 and 4.37 and 9.25"}
{"note": "Excerpt of the above:"}
{"Substance": "colistin", "target or system": "Aspergillus fumigatus", "test system": "conidia", "setting": "40 µM, together with: caspofungin 0.2 µg/mL", "how to read": "relative to: caspofungin alone", "endpoint": "CFU relative to caspofungin alone", "result": "1.11 and 0.904 and 1.23"}
